Results of several laboratories.
Parts stem from different laboratories: compare values within a part only. Changes are numbered by the printed parent chain.

Sample 1 — method: protein-binding microarray; form: double-stranded DNA, one strand shown; sample: in vitro; tested at: not given; reading: higher = stronger binding; quantity: E-score
Target: Myc proto-oncogene protein, bHLH-zipper, MAX partner unstated (MYC, Homo sapiens, UniProt P01106, residues 368-449)
Chain of UniProt P01106 (368-449, looked up): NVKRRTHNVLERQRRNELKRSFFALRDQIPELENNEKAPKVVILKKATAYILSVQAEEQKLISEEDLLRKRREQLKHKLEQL
Notes: k-mer, scored over probes, only values ≥0.25
AATGCACG: 0.332
TAGCGTGA: 0.267
GACGCCAC: 0.335
CGTGGATA: 0.36
ATGCGTAG: 0.264
ACCGCGCC: 0.252
CACCCCAC: 0.353
CCACCCAC: 0.347
ACGCGACG: 0.307
ACGCGCAC: 0.323
CACACATG: 0.434
CCACCCCA: 0.386
CCGCGCGC: 0.35
CGTGTAGC: 0.33
ACGCGTCA: 0.303
ATGCCCGC: 0.278
GCATGCAC: 0.417
CGTGTTAA: 0.297
CCGCACGC: 0.384
CGTGCCTA: 0.265
ACCGCATG: 0.474
CATGGCTC: 0.338
ACACGCGC: 0.443
CATGCAAA: 0.259
CATAGCAC: 0.257

Sample 2 — target: CCNA2, cyclin fold, Cln2 fusion (human); method: yeast growth competition, sequencing; sample: yeast; notes: strong parent motif; baseline: not given; reading: higher = stronger binding; quantity: normalised enrichment score
Parent: PKN2 docking peptide (human); VSAVQKLDFSDTM
VSAVQKRDFSDTM [L7R]: 0.021
WSAVQKLDFSDTM [V1W]: 2.05
VSAHQKLDFSDTM [V4H]: 1.14
VSAVQKLDNSDTM [F9N]: 0.0241
VSKVQKLDFSDTM [A3K]: 0.187
VSCVQKLDFSDTM [A3C]: 2.82
VSAVQKLNFSDTM [D8N]: 1.83
VSAVQKLDFSDNM [T12N]: 2.12
VSAVQKLHFSDTM [D8H]: 0.946
VSAVQKLDFHDTM [S10H]: 0.841
VSAVQKLDYSDTM [F9Y]: 0.867
NSAVQKLDFSDTM [V1N]: 2.04
VSAVQKLDFSDTC [M13C]: 2.06
VSAVQKLDFEDTM [S10E]: 2.13
VSADQKLDFSDTM [V4D]: -0.182
VSAVQKLDFCDTM [S10C]: 1.58
VSAVQKLDFSDTV [M13V]: 1.95
VSAVQTLDFSDTM [K6T]: 0.338
VSAVQKLDFSDYM [T12Y]: 2.29
ASAVQKLDFSDTM [V1A]: 1.57
VSAVQKIDFSDTM [L7I]: -0.176
VSAVQKPDFSDTM [L7P]: -0.18
VSAVQSLDFSDTM [K6S]: 1.8

Sample 3 — method: universal PBM; form: double-stranded DNA, one strand shown; sample: in vitro; tested at: 600 nM; reading: higher = stronger binding; quantity: E-score
Target: Sal-like protein 4, full length isoform A (SALL4, Homo sapiens, UniProt Q9UJQ4, residues 1-1053)
Chain of UniProt Q9UJQ4 (whole entry, looked up): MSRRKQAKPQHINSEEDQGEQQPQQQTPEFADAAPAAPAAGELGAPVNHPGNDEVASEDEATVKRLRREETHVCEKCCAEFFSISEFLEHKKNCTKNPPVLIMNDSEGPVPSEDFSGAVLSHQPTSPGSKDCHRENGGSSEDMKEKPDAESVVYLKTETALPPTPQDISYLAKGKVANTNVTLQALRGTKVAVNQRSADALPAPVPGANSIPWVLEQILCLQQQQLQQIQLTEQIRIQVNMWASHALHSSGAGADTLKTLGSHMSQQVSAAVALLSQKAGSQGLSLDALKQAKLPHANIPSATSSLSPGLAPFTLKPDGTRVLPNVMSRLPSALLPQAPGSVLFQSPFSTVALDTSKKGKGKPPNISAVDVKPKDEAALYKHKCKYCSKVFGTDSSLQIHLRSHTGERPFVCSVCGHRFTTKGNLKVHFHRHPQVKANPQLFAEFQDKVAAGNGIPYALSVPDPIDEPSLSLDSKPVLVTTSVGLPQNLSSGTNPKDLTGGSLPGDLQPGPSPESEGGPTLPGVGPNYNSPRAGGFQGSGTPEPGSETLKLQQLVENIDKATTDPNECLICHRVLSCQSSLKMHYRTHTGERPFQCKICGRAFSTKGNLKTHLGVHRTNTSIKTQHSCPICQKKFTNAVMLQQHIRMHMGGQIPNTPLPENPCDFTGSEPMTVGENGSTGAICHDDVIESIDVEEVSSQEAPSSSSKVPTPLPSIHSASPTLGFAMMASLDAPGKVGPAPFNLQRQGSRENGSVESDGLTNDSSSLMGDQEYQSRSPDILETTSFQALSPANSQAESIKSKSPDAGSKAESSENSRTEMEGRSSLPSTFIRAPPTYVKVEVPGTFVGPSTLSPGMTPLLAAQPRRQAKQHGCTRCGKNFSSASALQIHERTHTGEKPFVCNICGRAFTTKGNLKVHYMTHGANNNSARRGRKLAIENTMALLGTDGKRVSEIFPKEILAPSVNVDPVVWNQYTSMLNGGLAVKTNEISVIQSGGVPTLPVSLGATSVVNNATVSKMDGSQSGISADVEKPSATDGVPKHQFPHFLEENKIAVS
Notes: 8-mer, flanks averaged, mean of replicates
CCCTTGAG: -0.155
CTCTCCTA: 0.112
GGGACCCA: -0.302
AACACTAG: 0.134
CCGCTCGA: -0.32
AAAATTCC: 0.238
GGTAGCGA: -0.0732
TACTCCAA: 0.0194
CTTGTCAA: 0.234
GAGGGGAC: -0.325
CGTTCAGC: -0.176
CTAGAGAG: -0.0845
AGTCCTCC: -0.0539
AAAGTAAA: 0.344
CAAACAAA: 0.124
ATGAAATA: 0.341
CACAACCC: -0.23
ACTCCTTA: 0.0616
AAGCGAGT: -0.00173
AGATTTCG: 0.0812
CGGAACAC: -0.0772
GTGCATGA: 0.145
GCGTTCCA: -0.17
ACAGCGCT: -0.0482
ACACGCTG: -0.11

Sample 4 — method: RNA Bind-n-Seq; form: RNA; sample: in vitro; tested at: 365 nM; baseline: no-protein control; reading: higher = stronger binding; quantity: RBNS enrichment (R)
Target: RNA binding protein fox-1 homolog 2, RRM domain, GST-SBP tag (RBFOX2, Homo sapiens, UniProt O43251-10, residues 100-194)
Notes: natural RNA segment, single round, ends assumed
All sequences stand within: GGGAGUUCUACAGUCCGACGAUC … UGGAAUUCUCGGGUGCCAA
Residues (chain): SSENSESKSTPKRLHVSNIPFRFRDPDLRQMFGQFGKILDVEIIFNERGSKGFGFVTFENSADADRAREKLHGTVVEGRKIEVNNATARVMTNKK
UCCUGGUGUUGAGUUUCUGCAAAUUUCUGGGGGUGAUUUCUGUGACUCUGGGCCCACAGCGGGGAGGCCAAGAGGGGCCCUGUGGACUUUCACCCAGCACUGUGGGGGCC: 1.31
AAAAUUUAUCGGCCUUUCUCAUUUACCUGCUCUAGUAUUAUUGUAUUGUGUGUGCGUGCGUGUGUGAUGUCAGGCUGCCACGUAAAACUUCAGAGAAAAAUCUUAAAAGC: 1.19
GUCCUUCUUGAUUGCAGUGCAGUACUGGCAUUUCUGAAUGGAUGUAAGUGGAGUAUUUUAGUCUAAAGGCUUUUCAAAUUACUUGAAUUUUUUUAAAAAUUGAGGAGCUU: 0.438
AAGUAAAAGUGAAGUUAUUUUGAAGAAAACAACUCAUUUCCAAGGACGACAUGACGACGUGCCUUUUCAUUUUACAUCCUCUGUCCCCUAGGGUAAGUUUUUCAGCAUUA: 0.311
AAGCCCUAAAAUUUCAAACACUGUUUGAAAGAAGAGGUGGGGGCCGGGUGCCGUGGCUCAUGCCUGUCAUCCCAGCAUUUGGGAGGCUGAGGCAGGCAGAUCACCUGAGG: 0.295
AAGCUAAUAUUUUUUUAAAGUUACAUUAAGAUUUUUUCUCUUUUGCAGCUACAUUUGAAAGUGAUAGAAUAAAGAGAUUUUAAUGAGUUAUCACUUUUUCAGCUGAUAUA: 0.679
UCAUUUUUACCAGUCUGAGUGACAGGUCCCCUUCGCUCAUCAUUCAGAUGGCUUUCCAGAUGACCAGGACGAGUGGGAUAUUUUGCCCCCAACUUGGCUCGGCAUGUGAA: 2.71
AAUCGCCCAACACUCCUGCACAUCAGCAGCACCAGGCCCGGGAGUGCCACGAGUGUUGAACCUCAUCCCUUCCUGUGUCCUGGGCUGAGUGACCAGGUCAGUGGCCCUGC: 0.317
CAGAGCUGGGCGUCACUUCGCAAGCGUCCUGCCCUGCCGGGGCGCGGGGGUGGGCUCUGGGGAAGCCGGUGCGCCCCCCACGCCUCCGCUGCCAGUGCCUUACAUUCUGG: 0.259
UGUCUUCUUCUGGCCCUGGGUUUAUACCAGGAAAGCCAUGCCAGAAUUACCAAAUAUGAAGUAUGAAUGUCUUACCCACGGUGAGGCUCUGCCUCCUUCUCUCUGCCUGG: 0.309
UUCUGAGAUAUUUACAGUAUUAUUAAAAAAUGAAAAAGGUUGUACUGUUUUGCAUAAUGAACAUUUUUAUUGGGCAUUCAAAGGGUGCAAGAUUGUCUGCUUACUCAUUU: 0.914
AGGGCCAAGGCAGGAAGGGCCAGGGCCUCCUCUGUCCUUACCAACUCUGGGAAGUCAGCUCUGCCGGCCCGAGAGGGGCGGGCACUUUUUCAGCUUGCUAUAACCCCUUC: 0.412

Sample 5 — target: UBE2O UBC core domain (UniProt Q9C0C9); method: yeast two-hybrid; sample: yeast; notes: mostly zero background; baseline: not given; reading: higher = stronger interaction; quantity: lacZ reporter activity
Chain of UniProt Q9C0C9 (whole entry, looked up): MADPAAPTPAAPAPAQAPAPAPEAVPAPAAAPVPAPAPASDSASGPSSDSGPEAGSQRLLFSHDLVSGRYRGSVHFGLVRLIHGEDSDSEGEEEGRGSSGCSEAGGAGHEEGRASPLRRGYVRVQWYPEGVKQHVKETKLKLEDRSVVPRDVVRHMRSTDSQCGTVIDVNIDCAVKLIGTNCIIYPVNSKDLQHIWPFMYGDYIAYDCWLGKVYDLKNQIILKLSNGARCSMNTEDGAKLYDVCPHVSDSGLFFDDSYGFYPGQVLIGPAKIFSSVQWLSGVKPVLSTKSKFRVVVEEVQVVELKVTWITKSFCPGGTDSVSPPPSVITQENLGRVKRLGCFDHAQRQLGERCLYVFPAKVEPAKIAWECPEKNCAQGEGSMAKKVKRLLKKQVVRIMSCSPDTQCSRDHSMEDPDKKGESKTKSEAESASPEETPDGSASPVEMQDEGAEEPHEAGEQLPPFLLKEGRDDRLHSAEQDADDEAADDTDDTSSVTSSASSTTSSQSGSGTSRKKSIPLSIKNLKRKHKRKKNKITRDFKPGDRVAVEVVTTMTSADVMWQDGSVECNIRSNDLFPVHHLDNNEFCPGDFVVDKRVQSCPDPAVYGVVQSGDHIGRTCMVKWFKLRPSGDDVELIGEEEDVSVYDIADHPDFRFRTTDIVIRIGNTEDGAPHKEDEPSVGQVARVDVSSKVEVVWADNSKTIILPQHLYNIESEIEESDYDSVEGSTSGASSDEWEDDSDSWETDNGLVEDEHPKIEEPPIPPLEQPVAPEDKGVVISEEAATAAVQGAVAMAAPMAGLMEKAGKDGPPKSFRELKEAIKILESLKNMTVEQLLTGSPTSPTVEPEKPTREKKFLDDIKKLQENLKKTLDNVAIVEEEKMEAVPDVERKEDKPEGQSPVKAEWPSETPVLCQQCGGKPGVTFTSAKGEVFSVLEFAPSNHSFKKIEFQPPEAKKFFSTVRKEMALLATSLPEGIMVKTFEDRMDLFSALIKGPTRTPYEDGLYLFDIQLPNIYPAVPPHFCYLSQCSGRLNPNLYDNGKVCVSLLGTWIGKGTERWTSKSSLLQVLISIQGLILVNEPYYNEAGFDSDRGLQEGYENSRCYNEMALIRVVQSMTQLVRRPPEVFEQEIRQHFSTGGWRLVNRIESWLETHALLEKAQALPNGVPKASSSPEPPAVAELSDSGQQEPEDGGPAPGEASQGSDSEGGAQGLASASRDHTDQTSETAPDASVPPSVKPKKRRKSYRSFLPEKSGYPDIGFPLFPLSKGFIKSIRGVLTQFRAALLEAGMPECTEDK
B1: TRIM62 RING domain (UniProt Q9BVG3); chain MACSLKDELLCSICLSIYQDPVSLGCEHYFCRRCITEHWVRQEAQGARDCPECRRTFAEPALAP
B2: SH3RF1 RING domain (UniProt Q7Z6J0); chain DESALLDLLECPVCLERLDASAKVLPCQHTFCKRCLLGIVGSRNELRCPECRTLVGSGVEEL
B3: RBCK1 RING domain (UniProt Q9BYM8); chain SLVLNTEPAECPVCYSVLAPGEAVVLRECLHTFCRECLQGTIRNSQEAEVSCPFIDNTYSCSGKLLEREIK
B4: ZMIZ2 RING domain (UniProt Q8NF64); chain GTIPGTPGPNGEDGVEQTAIKVSLKCPITFRRIQLPARGHDCRHIQCFDLESYLQLNCERGTWRCPVCNKTALLEGLEVDQYMLGILIYIQNSDYEEITIDPTCSWK
B5: MDM4 RING domain (UniProt O15151); chain MEDCQNLLKPCSLCEKRPRDGNIIHGRTGHLVTCFHCARRLKKAGASCPICKKEIQLVIKVF
B6: RFWD3 RING domain (UniProt Q6PCD5); chain ASMDEEEGDTCTICLEQWTNAGDHRLSALRCGHLFGYRCISTWLKGQVRKCPQCNKKARHSDIVV
B7: SYTL4 RING domain (UniProt Q96C24); chain RGSQHYSDRTCARCQESLGRLSPKTNTCRGCNHLVCRDCRIQESNGTWRCKVCAKEIELKKAT
B8: RNF19A RING domain (UniProt Q9NV58); chain ISKQIGDFIECPLCLLRHSKDRFPDIMTCHHRSCVDCLRQYLRIEISESRVNISCPECTERFNPHDIR
B9: DZIP3 RING domain (UniProt Q86Y13); chain PDEEEEEEEPCVICHENLSPENLSVLPCAHKFHAQCIRPWLMQQGTCPTCRLHVLLPEEFP
B10: RNF133 RING domain (UniProt Q8WVZ7); chain DEEINPNGDSCVICFERYKPNDIVRILTCKHFFHKNCIDPWILPHGTCPICKCDILKVLGIQ
FDGDVDPDLKCALCHKVLEDPLTTPCGHVFCAGCVLPWVVQEGSCPARCRGRLSAKELN (PDZRN3 RING domain (UniProt Q9UPQ7)): 0
AVPSGLEENLCKICMDSPIDCVLLECGHMVTCTKCGKRMNECPICRQYVIRAVHVF (RFFL RING domain (UniProt Q8WZ73)): 0
B1 (TRIM62 RING domain): 0
AMYLQENGIDCPKCKFSYALARGGCMHFHCTQCRHQFCSGCYNAFYAKNKC (RNF31 RING domain (UniProt Q96EP0)): 0
B2 (SH3RF1 RING domain): 0
B3 (RBCK1 RING domain): 0
B4 (ZMIZ2 RING domain): 0
NLSELTPYILCSICKGYLIDATTITECLHTFCKSCIVRHFYYSNRCPKCNIVVHQTQPLY (PCGF6 RING domain (UniProt Q9BYE7)): 0
KETIKKTTKPCPRCHVPVEKNGGCMHMKCPQPQCRLEWCWNCGCEWNRVCMG (PRKN RING domain (UniProt O60260)): 0
B5 (MDM4 RING domain): 0
B6 (RFWD3 RING domain): 0
B7 (SYTL4 RING domain): 0
B8 (RNF19A RING domain): 0
B9 (DZIP3 RING domain): 0
KLRKLKEAMLCMVCCEEEINSTFCPCGHTVCCESCAAQLQSCPVCRSRVEHVQHVY (MYLIP RING domain (UniProt Q8WY64)): 0
B10 (RNF133 RING domain): 0

Some of these lines once more (sample 3):
AAAATTCC: 0.238
GGTAGCGA: -0.0732
TACTCCAA: 0.0194
CTTGTCAA: 0.234
GAGGGGAC: -0.325
CGTTCAGC: -0.176
CTAGAGAG: -0.0845
AGTCCTCC: -0.0539
AAAGTAAA: 0.344
CAAACAAA: 0.124
ATGAAATA: 0.341
CACAACCC: -0.23
ACTCCTTA: 0.0616
